Experimental data pooled from the literature.
Lines come from different studies, so protocols differ. Numbers after ± are the reported error. Converted amounts (≈) assume the structure as drawn.

Compound	organism	test	test system	setting	scale	measurement	result
COc1ccc2c(oc3c4ccc(O)cc4oc(=O)c23)c1CC=C(C)C	Enterococcus faecalis		ATCC 29212	concentration not given		antibacterial activity	inactive
CC/C(=C\c1ccc(OCC(=O)NC(C(=O)N2CCOCC2)c2ccccc2)cc1)[N+](=O)[O-] (centres unmarked)	Leishmania donovani		macrophages, intracellular amastigotes	12.5 µM, 72 h		inhibition	63.2%
CCOC(=O)C(C)NC(=O)CN1C(=O)S/C(=C\c2ccc(F)cc2)C1=O (centres unmarked)	Leishmania major	parasite growth		72 h, intracellular, amastigote		IC50	> 10 µM
Cc1cc2[nH]c(C(=O)NC(C)c3ccccc3)c(CN3CCOCC3)c2s1 (centres unmarked)	Giardia duodenalis	parasite growth		48 h		IC50	> 10 µM
CCOC(=O)CNC(=O)CN1C(=O)S/C(=C\c2ccc(OC)c(O)c2)C1=O	Leishmania donovani	parasite growth		72 h, intracellular, amastigote		IC50	0.31 µM
c1ccc(CN2CCOCCOCCN(CCCCCCCCN3CCOCCOCCN(CCCCCCCCN4CCOCCOCCN(Cc5ccccc5)CCOCCOCC4)CCOCCOCC3)CCOCCOCC2)cc1	Escherichia coli		tetracycline-resistant	62 µM		MIC of tetracycline	82 ± 15 µM
CCOC(=O)C(NC(=O)CN1C(=O)/C(=C/c2ccc3c(c2)OCO3)SC1=S)C(C)C (centres unmarked)	Leishmania major	parasite growth, resazurin		promastigote		IC50	> 100 µM
CC(C)(C)NCC(SS(=O)(=O)O)c1ccccc1 (centres unmarked)	Schistosoma mansoni		mice	oral, 400 mg/kg single dose, 42 days post-infection	baseline: vehicle	female worm burden reduction	100%
O=C(CN(CCNC(=O)OCC1c2ccccc2-c2ccccc21)C(=O)CCc1cn(C[c-]2cccc2)nn1)Nc1ccc(I)cc1.[Fe+2].c1cc[cH-]c1	Bacillus subtilis, Staphylococcus aureus	MIC	including MRSA	up to 512 µg/mL		antibacterial activity	inactive
COc1c2c(cc3oc(=O)cc(-c4ccc(O)cc4)c13)C(=O)c1cc(C)cc(O)c1C2=O	Klebsiella aerogenes			100 µg/disc		inhibition zone diameter	< 8 mm
CC/C(=C\c1ccc(OCC(=O)NC(C(=O)N2CCSCC2)c2ccccc2)cc1)[N+](=O)[O-] (centres unmarked)	Leishmania donovani		macrophages, intracellular amastigotes	6.25 µM, 72 h		inhibition	73.4%
CCC(NC(=O)CN1C(=O)N/C(=C\c2ccc(C)cc2)C1=O)C(=O)OC (centres unmarked)	Leishmania donovani	parasite growth, resazurin		promastigote		IC50	> 10 µM
COc1cccc(NC(=O)c2[nH]c3cc(C)sc3c2CN2CCCCC2)c1	Giardia duodenalis	parasite growth		48 h		IC50	> 10 µM
Cc1ccc(S(=O)(=O)Nn2c3c(cc(-c4nc5ccccc5s4)c2=O)CCCCCC3)cc1	human adenovirus 7	plaque	HEp-2		baseline: CC50 over IC50	selectivity index	2.79
Cc1cc2[nH]c(C(=O)N(C)Cc3ccco3)c(CN3CCCCC3)c2s1	Giardia duodenalis	parasite growth		48 h		IC50	> 10 µM
CN(C)c1cc(CNCc2ccco2)c(O)c2c1C[C@H]1C[C@H]3[C@H](N(C)C)C(O)=C(C(N)=O)C(=O)[C@@]3(O)C(O)=C1C2=O	Enterococcus faecalis		JH2-2(pMV158), Tet L efflux			MIC	1 µg/mL (≈ 1.76 µM)
N=C(N)NCCC[C@@H]1NC(=O)[C@H](CCCNC(=N)N)NC(=O)[C@H](CCCNC(=N)N)NC(=O)[C@H](Cc2ccc3ccccc3c2)NC(=O)[C@H](Cc2c[nH]c3ccccc23)NC(=O)[C@H](Cc2ccc3ccccc3c2)NC(=O)[C@H](CCCNC(=N)N)NC1=O	Escherichia coli	bacterial killing	ATCC BAA-2452	MIC		time to growth halt	4 h
CCOC(=O)C(NC(=O)CN1C(=O)N/C(=C\c2ccc3c(c2)OCO3)C1=O)C(C)C (centres unmarked)	Leishmania major	parasite growth, resazurin		promastigote		IC50	> 100 µM
N#CCC(=O)NNC(=S)Nc1ccc(Cl)c(Cl)c1	Nakaseomyces glabratus	item: CDR1, CDR2, YOR1		concentration not given, without ketoconazole		mRNA level	no effect

Compound	organism	test	test system	setting	scale	measurement	result
Cc1cc2[nH]c(C(=O)NCC3CCCO3)c(CN(C)C)c2s1 (centres unmarked)	Giardia duodenalis	parasite growth		48 h		IC50	> 10 µM
CC1(CCCCCCCCCCCCCCOCCCOP(=O)(O)CO[C@H](CO)Cn2ccc(N)nc2=O)COC1	human alphaherpesvirus 3		HFF, Ellen		baseline: CC50 over EC50	selectivity index	1070
CCCCCCCCCCCCCCCCCCCCCCCCCCCCCCOC(=O)/C=C/c1ccc(O)cc1	Nakaseomyces glabratus		clinical isolate		baseline: compound over fluconazole	MIC ratio	2.5
NCC(=O)N[C@@H](Cc1ccccc1)C(=O)N[C@@H](Cc1ccccc1)C(N)=O	Aplysia	feeding network activity, electrophysiology	buccal and cerebral ganglia	concentration not given		activity	inactive
Cc1c2c(cc3oc(=O)cc(-c4ccc(Cl)cc4)c13)C(=O)c1cccc(O)c1C2=O	Klebsiella aerogenes	microbial growth, disc diffusion		100 µg/disc		inhibition zone	8 mm
CC(C)C[C@H](NC(=O)[C@H](Cc1ccc(O)cc1)NC(=O)[C@@H]1CCCN1C(=O)[C@H](CCCNC(=N)N)NC(=O)[C@@H]1CCCN1C(=O)[C@H](CCCCN)NC(=O)[C@H](CC(=O)O)NC(=O)[C@@H]1CCCN1C(=O)[C@H](CCCNC(=N)N)NC(=O)C1(N)CCCCC1)C(=O)N1CCC[C@H]1C(=O)N[C@@H](CCCNC(=N)N)C(=O)N1CCC[C@H]1C(=O)N[C@@H](CCCNC(=N)N)C(=O)N1CCC[C@H]1C(=O)N1CCC[C@H]1C(=O)N[C@@H](CCCNC(=N)N)C(=O)N1CCC[C@H]1C(=O)N[C@H](C(=O)N[C@@H](CCCNC(=N)N)C(=O)N[C@@H](CSc1c(F)c(F)c(SC[C@H](NC(=O)[C@H](CCCNC(=N)N)NC(=O)[C@@H](NC(=O)[C@@H]2CCCN2C(=O)[C@H](CCCNC(=N)N)NC(=O)[C@@H]2CCCN2C(=O)[C@@H]2CCCN2C(=O)[C@H](CCCNC(=N)N)NC(=O)[C@@H]2CCCN2C(=O)[C@H](CCCNC(=N)N)NC(=O)[C@@H]2CCCN2C(=O)[C@H](CC(C)C)NC(=O)[C@H](Cc2ccc(O)cc2)NC(=O)[C@@H]2CCCN2C(=O)[C@H](CCCNC(=N)N)NC(=O)[C@@H]2CCCN2C(=O)[C@H](CCCCN)NC(=O)[C@H](CC(=O)O)NC(=O)[C@@H]2CCCN2C(=O)[C@H](CCCNC(=N)N)NC(=O)C2(N)CCCCC2)C(C)C)C(=O)NN)c(F)c1F)C(=O)NN)C(C)C	Acinetobacter baumannii	flow cytometry		0.25 to 0.5 × MBC	baseline: untreated	ROS generation	1.5 fold
CC(C)CNCc1cc(N(C)C)c2c(c1O)C(=O)C1=C(O)[C@]3(O)C(=O)C(C(N)=O)=C(O)[C@@H](N(C)C)[C@@H]3C[C@@H]1C2	Enterococcus faecalis	microbial growth, broth dilution				MIC	1 µg/mL (≈ 1.84 µM)
CC(=O)[O-].O.O.[O-]c1ccc(Br)cc1C=NCCN1CCOCC1.[Zn+2]	Mucor indicus			20 µL of 100 µM per disc		inhibition zone diameter	29 mm
CN(C)c1cc(CNC(C)(C)C)c(O)c2c1C[C@H]1C[C@H]3[C@H](N(C)C)C(O)=C(C(N)=O)C(=O)[C@@]3(O)C(O)=C1C2=O	Enterococcus faecalis		JH2-2(pMV158), Tet L efflux			MIC	8 µg/mL (≈ 14.7 µM)
Oc1c(Br)cc(Br)c2nc3cc(SC(F)(F)F)ccc3nc12	Enterococcus	Calgary Biofilm Device	VRE 700221	biofilm		MBC	0.15 µM (≈ 0.0681 µg/mL)
Cc1cccc2c1N(C(=O)n1ccnn1)CC2	Arabidopsis thaliana		wild type	ambient temperature		germination inhibition concentration	> 30 µM
c1ccc(CN2CCOCCOCCN(CCCCCCCCCCCCCCN3CCOCCOCCN(CCCCCCCCCCCCCCN4CCOCCOCCN(Cc5ccccc5)CCOCCOCC4)CCOCCOCC3)CCOCCOCC2)cc1	Escherichia coli	K+ selective electrode	tetracycline-resistant	4 µM, 10 min	baseline: total	potassium release	40%
CCOC(=O)C(CC)NC(=O)CN1C(=O)S/C(=C\c2ccc(OC)cc2)C1=O (centres unmarked)	Leishmania major	parasite growth		72 h, intracellular, amastigote		IC50	> 10 µM
CN(C)c1cc(CNCC(N)=O)c(O)c2c1C[C@H]1C[C@H]3[C@H](N(C)C)C(O)=C(C(N)=O)C(=O)[C@@]3(O)C(O)=C1C2=O	Enterococcus faecalis	microbial growth, broth dilution				MIC	8 µg/mL (≈ 14.7 µM)
CC1(CCCCCCCCCCCCOCCCOP(=O)(O)CO[C@H](CO)Cn2ccc(N)nc2=O)COC1	human alphaherpesvirus 3		HFF, Ellen		baseline: CC50 over EC50	selectivity index	72
CCOC(=O)C(NC(=O)CN1C(=O)/C(=C/c2ccc([N+](=O)[O-])cc2)SC1=S)C(C)C (centres unmarked)	Leishmania major	parasite growth		72 h, intracellular, amastigote		IC50	> 10 µM
Cc1cc(O)c2c(c1)C(=O)c1cc3oc(=O)cc(C)c3c(O)c1C2=O	Klebsiella aerogenes	microbial growth, disc diffusion		100 µg/disc		inhibition zone	12 mm
CCOC(=O)C(C)NC(=O)CN1C(=O)N/C(=C\c2ccc(C)cc2)C1=O (centres unmarked)	Leishmania major	parasite growth		72 h, intracellular, amastigote		IC50	> 10 µM
CN[C@H](CC(C)C)C(=O)N[C@H]1C(=O)N[C@@H](CC(N)=O)C(=O)N[C@H]2C(=O)N[C@H]3C(=O)N[C@H](C(=O)N[C@H](C(=O)O)c4cc(O)cc(O)c4-c4cc3ccc4O)[C@H](O)c3ccc(c(Cl)c3)Oc3cc2cc(c3O[C@@H]2O[C@H](CO)[C@@H](O)[C@H](O)[C@H]2O[C@H]2C[C@](C)(NCc3ccc(C(=O)OCCCCCCN(Cc4ccccn4)Cc4ccccn4)cc3)[C@H](O)[C@H](C)O2)Oc2ccc(cc2Cl)[C@H]1O	Bacillus subtilis	growth retardation	168			physiologically effective concentration	0.16 µM

A few entries again:
Compound	organism	test	test system	setting	scale	measurement	result
Cc1ccc(S(=O)(=O)Nn2c3c(cc(-c4nc5ccccc5s4)c2=O)CCCCCC3)cc1	human adenovirus 7	plaque	HEp-2		baseline: CC50 over IC50	selectivity index	2.79
Cc1cc2[nH]c(C(=O)N(C)Cc3ccco3)c(CN3CCCCC3)c2s1	Giardia duodenalis	parasite growth		48 h		IC50	> 10 µM
CN(C)c1cc(CNCc2ccco2)c(O)c2c1C[C@H]1C[C@H]3[C@H](N(C)C)C(O)=C(C(N)=O)C(=O)[C@@]3(O)C(O)=C1C2=O	Enterococcus faecalis		JH2-2(pMV158), Tet L efflux			MIC	1 µg/mL (≈ 1.76 µM)
N=C(N)NCCC[C@@H]1NC(=O)[C@H](CCCNC(=N)N)NC(=O)[C@H](CCCNC(=N)N)NC(=O)[C@H](Cc2ccc3ccccc3c2)NC(=O)[C@H](Cc2c[nH]c3ccccc23)NC(=O)[C@H](Cc2ccc3ccccc3c2)NC(=O)[C@H](CCCNC(=N)N)NC1=O	Escherichia coli	bacterial killing	ATCC BAA-2452	MIC		time to growth halt	4 h
CCOC(=O)C(NC(=O)CN1C(=O)N/C(=C\c2ccc3c(c2)OCO3)C1=O)C(C)C (centres unmarked)	Leishmania major	parasite growth, resazurin		promastigote		IC50	> 100 µM
